Measured values collected from several papers.
A part holds a random share of what one study measured. Positions count from the first letter of the parent shown.

Sample 1 — technique: aptamer microarray, sandwich; molecule type: DNA with 2'F-ANA; matrix: in vitro; tested at: 200 nM; together with: Cy3 exosite-II aptamer, 400 nM; direction: higher = stronger binding; endpoint: mean fluorescence intensity; sequence: GGTTGGTGTGGTTGG
Target: Prothrombin, mature alpha-thrombin (F2, Homo sapiens, UniProt P00734)
Notes: whole 15-mer aptamer, many near background
2'F-ANA at 2 3 6 10 15: 338 a.u.
2'F-ANA at 1 6 7 8 11 12 14 15: 71.6 a.u.
2'F-ANA at 1 3 4 8 11 13 14 15: 220 a.u.
2'F-ANA at 2 4 9 12: 582 a.u.
2'F-ANA at 1 4 5 7 8 12 13 15: 104 a.u.
2'F-ANA at 1 6 9 10 12 14 15: 51.2 a.u.
2'F-ANA at 1 3 7 8 9 12 13 15: 557 a.u.
2'F-ANA at 1 2 3 4 7 8 9 11 12: 324 a.u.
2'F-ANA at 1 3 5 6 7 8 9 10 12: 70.6 a.u.
2'F-ANA at 2 3 4 7 8 10 12: 365 a.u.
2'F-ANA at 1 2 3 4 5 6 7 8 9 11 12 13 14: 79.4 a.u.
2'F-ANA at 1 2 3 4 7 10 12 14 15: 51 a.u.
2'F-ANA at 1 2 3 6 12 13 14 15: 80.3 a.u.
2'F-ANA at 1 5 6 9 11 12 13 14: 51.7 a.u.
2'F-ANA at 1 6 7 9 10 13 14 15: 49.7 a.u.
2'F-ANA at 3 4 5 6 7 8 10 15: 60.2 a.u.

Sample 2 — target: CCNB2, cyclin fold, Cln2 fusion (human); technique: yeast growth competition, sequencing; matrix: yeast; notes: weak parent motif; relative to: not given; direction: higher = stronger binding; endpoint: normalised enrichment score
Parent: PKN2 docking peptide (human); VSAVRKLDFSDTM
S2K: 0.279
F9T: 0.203
D8G: 0.272
R5M: 0.247
R5G: -0.791
S10D: 1.56
K6I: 0.0425
T12G: 0.947
L7K: 0.202
F9G: 0.505
V4P: 0.0563
S2Y: 0.115
D11L: 0.0234
D8M: -0.106
S10Y: 0.759
A3I: 3.4
D11V: 0.138

Sample 3 — technique: RNA Bind-n-Seq; molecule type: RNA; matrix: in vitro; tested at: 200 nM; notes: whole 134-nt RNA, ends assumed; together with: 150 mM LiCl; relative to: input library; direction: higher = stronger binding; endpoint: log2 enrichment; library: 7-deaza-guanosine replaces G
Target: Ras GTPase-activating protein-binding protein 1, full length (G3BP1, Homo sapiens, UniProt Q13283)
UniProt Q13283, sequence (whole entry, looked up): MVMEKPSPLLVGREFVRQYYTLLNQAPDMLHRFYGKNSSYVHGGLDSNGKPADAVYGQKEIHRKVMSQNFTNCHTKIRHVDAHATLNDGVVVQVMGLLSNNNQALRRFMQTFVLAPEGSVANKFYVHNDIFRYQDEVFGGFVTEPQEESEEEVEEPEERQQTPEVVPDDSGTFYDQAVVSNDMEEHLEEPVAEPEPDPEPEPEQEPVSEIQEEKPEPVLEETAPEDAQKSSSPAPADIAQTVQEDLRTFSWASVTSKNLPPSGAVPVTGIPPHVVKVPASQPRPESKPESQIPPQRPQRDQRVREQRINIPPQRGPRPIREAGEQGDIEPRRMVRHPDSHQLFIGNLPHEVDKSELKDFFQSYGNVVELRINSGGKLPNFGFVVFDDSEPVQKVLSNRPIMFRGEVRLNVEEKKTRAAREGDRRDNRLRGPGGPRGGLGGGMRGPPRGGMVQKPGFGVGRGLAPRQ
Constant ends, left off below: GGGAGUUCUACAGUCCGACGAUC … UGGAAUUCUCGGGUGUCAAGG
AGUCCUGUGCUACACAUCGUAUGUACCGAAUCAAACCCAAACCCAAAUUUUUUUAAAAAAGUAUUAUGUUACGCCGUUCGGAUCUGCACU: 0.935
CAAGUCCUGUGCUACACAUCGUAUGUACCGAAUCGGAAAGGGGAAAGGGGAAAGGAAAGUAUUAUGUUACGCCGUUCGGAUCUGCACUUC: 0.0189
UGUGUGCAUUCCCUGCGCCAAGGGCUUCCCCAGCUCUGAGCAGCUCAAUGCGCACGUGGAGACUCACACGGAGGAAGAGCUGUUCAUCAA: -0.666
AGUCCUGUGCUACACAUCGUAUGUACCGAAUCGGGAAAAAGGGAGGGAAAAAAAGGGAAAGUAUUAUGUUACGCCGUUCGGAUCUGCACU: -0.25
UGGCCCUGGUGGCAUGCGGGGAGGAAGAGGUGGCCUCAUGGAUCGUGGUGGUCCCGGUGGAAUGUUCAGAGGUGGCGGUGGUGGAGACAG: -0.248
UGGGAGGUGGAUUUUGUUAAUUUUUUUAGCUCAUUUCCAGGGGUGGGAAUUUUUUUUUAAUAUGUGUCAUGAAUAAAGUUGUUUUUGAAA: -0.664
GCAGGAAGUAAAAACAAAUGGAAAUGCUUCGGAUAGUGGCAGGGGUGGGGGUUGCUAAGCAAAGGGUGGGAUGGGAGUGGGUAAAGAGUU: 0.171
GUCCUGUGCUACACAUCGUAUGUACCGAAUCAAACCCCCAAACCCCCAAAUUUUUAAAAAAGUAUUAUGUUACGCCGUUCGGAUCUGCAC: 0.734

Sample 4 — technique: DHFR PCA, deep sequencing; matrix: yeast; together with: (+)-ABA 17 µM; relative to: wild-type fitted maximum; direction: higher = stronger binding; endpoint: relative binding score
Target: ABI1, truncated, D143A, DHFR fusion (Arabidopsis thaliana)
Notes: methotrexate growth selection, single substitutions
Parent: PYL1, truncated, DHFR fusion (Arabidopsis thaliana); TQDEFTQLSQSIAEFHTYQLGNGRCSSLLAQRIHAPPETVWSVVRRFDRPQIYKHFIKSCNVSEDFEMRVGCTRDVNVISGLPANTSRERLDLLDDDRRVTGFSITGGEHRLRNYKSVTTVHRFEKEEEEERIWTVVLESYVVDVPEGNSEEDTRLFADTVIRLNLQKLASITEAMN; partner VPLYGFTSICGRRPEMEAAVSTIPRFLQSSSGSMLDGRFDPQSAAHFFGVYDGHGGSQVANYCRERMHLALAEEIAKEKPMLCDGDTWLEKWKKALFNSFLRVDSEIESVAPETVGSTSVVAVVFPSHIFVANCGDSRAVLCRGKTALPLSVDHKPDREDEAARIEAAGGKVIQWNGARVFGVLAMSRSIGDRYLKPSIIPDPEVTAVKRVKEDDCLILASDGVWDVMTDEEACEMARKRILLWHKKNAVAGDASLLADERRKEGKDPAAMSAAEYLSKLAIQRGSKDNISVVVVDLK
L29M: 67.3%
L94R: 1.17%
I79F: 83.3%
M176T: 80.4%
L8K: 12.9%
R98P: -4.34%
R155Y: 6.99%
G108R: -9.99%
F124V: 99.2%
W41S: -1.86%
L164A: 80.3%
T135M: 4.17%
E38I: 15%
T1C: 83.4%
V78N: 20%
G148D: 62.5%
